Results pooled from the literature.
Each numbered part is a random draw from the data of one study; scales do not carry over between parts. Substitutions count along the parent as printed.

Sample 1
Target: ABI1, truncated, D143A, DHFR fusion (Arabidopsis thaliana)
Method: DHFR PCA, deep sequencing
Sample: yeast
Setting: methotrexate growth selection, single substitutions
Together with: (+)-ABA 58 µM
Relative to: wild-type fitted maximum
Direction: higher = stronger binding
Measurement: relative binding score
Parent: PYL1, truncated, DHFR fusion (Arabidopsis thaliana); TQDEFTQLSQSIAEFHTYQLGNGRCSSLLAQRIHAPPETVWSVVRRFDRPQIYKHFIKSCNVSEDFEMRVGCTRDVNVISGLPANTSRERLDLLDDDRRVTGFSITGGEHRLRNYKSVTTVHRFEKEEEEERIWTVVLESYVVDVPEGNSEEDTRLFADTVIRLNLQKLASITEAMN; partner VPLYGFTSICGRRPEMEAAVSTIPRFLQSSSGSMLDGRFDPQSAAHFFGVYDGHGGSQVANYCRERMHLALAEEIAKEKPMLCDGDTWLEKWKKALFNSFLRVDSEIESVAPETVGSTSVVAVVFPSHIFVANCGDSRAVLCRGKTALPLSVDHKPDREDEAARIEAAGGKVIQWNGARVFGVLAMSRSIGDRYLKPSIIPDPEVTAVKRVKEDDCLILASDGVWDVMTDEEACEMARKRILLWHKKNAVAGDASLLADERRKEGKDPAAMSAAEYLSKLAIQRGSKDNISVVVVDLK
D159T: 41.7%
S150Y: 34.1%
S150H: 57.8%
E4M: 84.2%
I57L: 79.1%
F47G: -2.72%
K116H: 81.4%
F124T: 69.6%
D75G: 58.2%
K168G: 74.5%
A175C: 82.7%
T160C: 73.9%
T17F: 50.2%

Sample 2
Target: CCND1, cyclin fold, Cln2 fusion (human)
Method: yeast growth competition, sequencing
Sample: yeast
Setting: strong parent motif
Relative to: not given
Direction: higher = stronger binding
Measurement: normalised enrichment score
Parent: SCAPER docking peptide (human); SNARRSLNFGGST
T13W: 0.414
G10E: 0.81
L7C: 0.389
S12Q: 0.606
N2L: 0.361
N2D: 0.333
S6H: 1.64
N8E: 0.949

Sample 3
Target: Ras GTPase-activating protein-binding protein 1, full length (G3BP1, Homo sapiens, UniProt Q13283)
Chain of UniProt Q13283 (whole entry, looked up): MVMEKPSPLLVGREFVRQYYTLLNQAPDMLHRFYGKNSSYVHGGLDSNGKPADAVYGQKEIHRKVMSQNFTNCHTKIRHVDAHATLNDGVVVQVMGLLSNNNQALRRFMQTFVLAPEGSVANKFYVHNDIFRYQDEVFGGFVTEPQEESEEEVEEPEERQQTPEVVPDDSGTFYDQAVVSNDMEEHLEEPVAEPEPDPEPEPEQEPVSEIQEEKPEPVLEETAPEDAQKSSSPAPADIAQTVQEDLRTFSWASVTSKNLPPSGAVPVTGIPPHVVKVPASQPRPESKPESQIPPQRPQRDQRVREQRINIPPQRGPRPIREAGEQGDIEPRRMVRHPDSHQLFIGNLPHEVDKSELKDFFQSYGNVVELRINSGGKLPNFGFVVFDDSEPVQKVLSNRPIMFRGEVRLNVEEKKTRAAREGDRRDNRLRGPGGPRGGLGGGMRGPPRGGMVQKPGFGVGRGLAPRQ
Method: RNA Bind-n-Seq
Molecule type: RNA
Sample: in vitro
Concentration: 200 nM
Setting: whole 134-nt RNA, ends assumed
Together with: 150 mM KCl
Relative to: input library
Direction: higher = stronger binding
Measurement: log2 enrichment
Constant ends, left off below: GGGAGUUCUACAGUCCGACGAUC … UGGAAUUCUCGGGUGUCAAGG
CCUGUGCUACACAUCGUAUGUACCGAAUCGGGGUGGGGUUUUUUUGGGGUUUUUUUGGGGAAAGUAUUAUGUUACGCCGUUCGGAUCUGC: 0.159
CUCAAGUCCUGUGCUACACAUCGUAUGUACCGAAUCGGGAAGGGAAGGGAAGGGAAAGUAUUAUGUUACGCCGUUCGGAUCUGCACUUCC: 1.44
ACCAUGCAGGUGGGCAAAUUUGGGAAGUGGGGCAAGGGGGGGAUAGGGAGGGGGGUAACACUUUGGGAACAGGUGGUCCCAGGUCGUUUC: 1.09
CCUGUGCUACACAUCGUAUGUACCGAAUCGGUUUUUUUGGGUUUUUUUGGUUUUUUUGGGAAAGUAUUAUGUUACGCCGUUCGGAUCUGC: -1.04
UGGGAGGUGGAUUUUGUUUAUUUUUUUAGCUCAUUUCCAGGGGUGGGAAUUUUUUUUUAAUAUGUGUCAUGAAUUAAGUUGUUUUUGAAA: 0.321
UCAAGUCCUGUGCUACACAUCGUAUGUACCGAAUCGGGCCGGGGCCGGGGCCGGAAAGUAUUAUGUUACGCCGUUCGGAUCUGCACUUCC: -0.972
AGUCCUGUGCUACACAUCGUAUGUACCGAAUCGGGGAAAAGGAAAAGGGGAAAAGGGGAAAGUAUUAUGUUACGCCGUUCGGAUCUGCAC: -0.00826
AGUCCUGUGCUACACAUCGUAUGUACCGAAUCGGAAAAAGGAAAAAGGGAAAAAGGGAAAGUAUUAUGUUACGCCGUUCGGAUCUGCACU: -1.2
CCUGUGCUACACAUCGUAUGUACCGAAUCGGGGAAAAAAGGGGAAAAAAGGGAAAAAAGGAAAGUAUUAUGUUACGCCGUUCGGAUCUGC: -0.477
CCAACUCCUAUAAUUCCCUAUCUUUUAGUUUUAGUUGCAGAAACAUUUUGUGGUCAUUAAGCAUUGGGUGGGUAAAUUCAACCACUGUAA: -0.0776
AGUCCUGUGCUACACAUCGUAUGUACCGAAUCGGAAAAAGGAAAAAGGGGAAAAAGGGAAAGUAUUAUGUUACGCCGUUCGGAUCUGCAC: -0.973
UCAAGUCCUGUGCUACACAUCGUAUGUACCGAAUCGGGGCGGGGCGGGGCGGGGAAAGUAUUAUGUUACGCCGUUCGGAUCUGCACUUCC: 1.69
UUUAGACAGAAACAAGAAGCAACAGAGUCCCUUAAGUGCCAAGAGGAACUUCGAGAGCGCCUUCAUGAGGAGUCCAGGGCCAGAGAACAG: -0.493
CACAGACAACACGCACCCACACAGACACAGAGGGAAAGGGUUGGGAUGGGGACAGGGUGCACAGCAGGGCGGGGUAGGACCCCAGCCCCU: 1.86

Other studies, line by line
PhoQ, residues 284 288 289 292 302 303 ALSMDL — fold induction (PhoP, residues 12 14 15 18 19 QWHVF (Escherichia coli, UniProt P23836); Sort-seq, measured: YFP reporter; E. coli; PhoQ-PhoP variant library, together with: 10 µM Mg2+; relative to: high Mg2+ state, higher = stronger signaling): 6.61

Some of these lines once more (sample 1):
S150Y: 34.1%
I57L: 79.1%
S150H: 57.8%
T17F: 50.2%
K116H: 81.4%
